Published values pooled from the literature.
Each line is one published result; not all experiments were run side by side. ± marks the error that the study gave.

| SMILES | assay | system | conditions | how to read | measurement | result |
| --- | --- | --- | --- | --- | --- | --- |
| Cc1n[nH]c2ccc(-c3cc(OC[C@@H](N)Cc4ccccc4)cnc3-c3ccoc3)cc12 | kinase binding, competitor, MIB/MS competition, item: SSK2 | Candida albicans cell lysate | 100 nM | reference: DMSO | log2 fold change | -0.564 |
| CC(C)[C@H](C(=O)Nc1ccc(C(=O)NO)cc1)c1ccccc1 | volumetric MRI | human, right internal auditory canal | dose not given, 51 days | – | tumour volume | 18.6 cm³ |
| O=C1CCc2ccc(OCCCCN3CCN(c4cccc(Cl)c4Cl)CC3)cc2N1 | – | patients CYP2D6 NM | 3 months | – | stopping or switching | 24% |
| COc1cc(Nc2ncc3c(n2)-c2ccc(Cl)cc2C(c2c(F)cccc2OC)=NC3)ccc1C(=O)O | – | mouse, NB-SD neuroblastoma xenograft | 5.2 mg/kg | direction not given | median response score | 2 |
| CC(C)NCC(O)c1ccc(O)c(O)c1 (stereo not drawn) | – | ventricular cardiomyocytes, C57BL/6 mouse | dose not given, 0.276 s | – | sarcomere length | 1.69 µm |
| COc1nc(-c2cc(C)c(N[C@@H](C)c3cc(F)cc(F)c3)nn2)ccc1-n1cnc(C)c1 | item: Aβ38 | rat Sprague-Dawley male, CSF | oral, 5 mg/kg daily for 9 days, 4 h after dose | reference: vehicle | change in level | 26% |
| NC(=O)c1cnc2[nH]ccc2c1N[C@@H]1[C@@H]2CC3C[C@H]1C[C@@](O)(C3)C2 | CD8+ central memory T cells, flow cytometry | Caucasian humans, peripheral blood | 20 mg single dose | reference: baseline | percent change | -0.12% |
| CC(=O)Oc1cc2c(s1)CCN(C(C(=O)C1CC1)c1ccccc1F)C2 (stereo not drawn) | platelet aggregation, light transmittance aggregometry | human, platelet-rich plasma | dose not given, 30 min, IPA above 80 %, together with: TRAP 5 µM | reference: patients | patients with IPA above threshold | 0% |
| CCO[C@H]1CCN(Cc2c(OC)cc(C)c3[nH]ccc23)[C@H](c2ccc(C(=O)O)cc2)C1 | – | PNH patients, blood | oral, 50 mg then 200 mg, week 8, mean absolute change | reference: baseline | PNH RBC clone size | 39.9% |
| CN(C(=O)n1cnc(-c2ccc[n+]([O-])c2)c1)C1CCCCC1 | item: OEA | human, plasma | 2.5 mg once daily, day 10 | – | AUC(0-tau) | 273 ng·h/mL |
| [Cl-].[Cl-].[Pt+2].[Ru+2].c1ccc(-c2nccnc2-c2ccccn2)nc1.c1cnc2c(c1)ccc1cccnc12.c1cnc2c(c1)ccc1cccnc12 | chloride substitution, UV-vis kinetics | aqueous buffer | concentration not given, pH 7.2, first substitution step, together with: guanosine 5'-monophosphate | – | negative activation entropy | 131 ± 9 J/(mol·K) |
| COc1cc2nccc(Oc3ccc(NC(=O)C4(C(=O)Nc5ccc(F)cc5)CC4)cc3)c2cc1OC | – | Kaposi sarcoma patients | dose not given | – | durable clinical benefit | ~25% |
| C[C@H](Oc1ccc(Br)cc1-c1ccon1)C(=O)O | first response latency | human, tibialis anterior muscle | 100 mg, 30 Hz, single ascending dose | – | difference from placebo | -0.112% |
| OC(CCN1CCCCC1)(c1ccccc1)C1CC2C=CC1C2 (stereo not drawn) | resting-state EEG | healthy elderly humans | oral, 2 mg, eyes open, LS mean | reference: baseline | change in EEG Beta3-power Pz-O1 | 11.3% |
| c1ccc(-c2n[nH]cc2-c2ccnc3ccccc23)nc1 | kinase binding, competitor, MIB/MS competition, item: CMK1 | Candida albicans cell lysate | 10 µM | reference: DMSO | log2 fold change | 1.6 |
| N#Cc1ccc2c(c1)[C@H]1CCCN(C(=O)c3ccc4[nH]cnc4c3)[C@H]1C2 | – | human, plasma | 40 mg, day 15, 360 h | reference: placebo and baseline | change in fasting insulin | -27.6% |
| CS(=O)(=O)CCNCc1ccc(-c2ccc3ncnc(Nc4ccc(OCc5cccc(F)c5)c(Cl)c4)c3c2)o1 | tumour growth | Calu-3 xenograft, mouse | oral, daily | – | ED50 | 169 mg/kg |
| C=CCn1c(=O)c2cnc(Nc3ccc(N4CCN(C)CC4)cc3)nc2n1-c1ccc2c(n1)[C@@](O)(CC)CC2 | – | NCI-H1755, NOD/SCID mice, xenograft | oral, 80 mg/kg once daily, day 28 | reference: vehicle | tumour growth inhibition | 89.6% |

For quick reference, copied from above:
| SMILES | assay | system | conditions | how to read | measurement | result |
| --- | --- | --- | --- | --- | --- | --- |
| CC(=O)Oc1cc2c(s1)CCN(C(C(=O)C1CC1)c1ccccc1F)C2 (stereo not drawn) | platelet aggregation, light transmittance aggregometry | human, platelet-rich plasma | dose not given, 30 min, IPA above 80 %, together with: TRAP 5 µM | reference: patients | patients with IPA above threshold | 0% |
| CCO[C@H]1CCN(Cc2c(OC)cc(C)c3[nH]ccc23)[C@H](c2ccc(C(=O)O)cc2)C1 | – | PNH patients, blood | oral, 50 mg then 200 mg, week 8, mean absolute change | reference: baseline | PNH RBC clone size | 39.9% |
